Results gathered from unrelated publications.
Compare with care: the assays were run in different laboratories.
Organism: Enterococcus faecium

CN[C@H](CC(C)C)C(=O)N[C@H]1C(=O)N[C@@H](CC(N)=O)C(=O)N[C@H]2C(=O)N[C@H]3C(=O)N[C@H](C(=O)N[C@H](C(=O)O)c4cc(O)cc(O)c4-c4cc3ccc4O)[C@H](O)c3ccc(c(Cl)c3)Oc3cc2cc(c3O[C@@H]2O[C@H](CO)[C@@H](O)[C@H](O)[C@H]2O[C@H]2C[C@](C)(NCc3ccc(OCc4cn(CC(=O)N[C@H](C(=O)N[C@@H](CCN)C(=O)N[C@H]5CCNC(=O)[C@H]([C@@H](C)O)NC(=O)[C@H](CCN)NC(=O)[C@H](CCN)NC(=O)[C@H](CC(C)C)NC(=O)[C@@H](CC(C)C)NC(=O)[C@H](CCN)NC5=O)[C@@H](C)O)nn4)c(OC)c3)[C@H](O)[C@H](C)O2)Oc2ccc(cc2Cl)[C@H]1O — MIC (broth microdilution; vancomycin-resistant vanB, tryptic soy broth; 20 to 24 h, 37 °C, 0.002% polysorbate 80): 2 µg/mL
CC[C@H](C)[C@H](N)C(=O)N[C@@H](CCCNC(=N)N)C(=O)N[C@H](C(=O)N[C@@H](Cc1c[nH]c2ccccc12)C(=O)N[C@@H](Cc1ccccc1)C(=O)N[C@H](C(=O)N[C@@H](CCCCN)C(=O)N[C@H](C(=O)N[C@@H](CCCNC(=N)N)C(=O)N[C@@H](CCCCN)C(=O)N[C@@H](CCSC)C(=O)N[C@@H](CCCCN)C(=O)N[C@@H](C)C(=O)N[C@H](C(=O)N[C@@H](Cc1ccc(O)cc1)C(=O)N[C@@H](Cc1c[nH]cn1)C(N)=O)[C@@H](C)CC)C(C)C)[C@@H](C)CC)C(C)C — MIC (broth dilution; KCTC 13225): > 100 µM
C=C1NC(=O)C2CSCC3NC(=O)C(CSC(C)C(NC(=S)C(Cc4cnc[nH]4)NC(=O)c4csc(C(C)NC(C)=O)n4)C(=O)N[C@H](CC(C)C(=O)NC(=O)CC(C(=O)O)NC(=O)C(C)NC3=O)C(=O)N2)NC(=O)[C@@H]2CCCN2C(=O)[C@@H](CC(C)C)NC1=O (stereo partly drawn) — MIC (BM4147-1): > 32 µg/mL
CN[C@H](CC(C)C)C(=O)N[C@H]1C(=O)N[C@@H](CC(N)=O)C(=O)N[C@H]2C(=O)N[C@H]3C(=O)N[C@H](C(=O)N[C@H](C(=O)N[C@@H](CCCNC(=N)N)C(N)=O)c4cc(O)cc(O)c4-c4cc3ccc4O)[C@H](O)c3ccc(c(Cl)c3)Oc3cc2cc(c3O[C@@H]2O[C@H](CO)[C@@H](O)[C@H](O)[C@H]2O[C@H]2C[C@](C)(NCc3ccc(OCc4cn(CC(=O)N[C@H](C(=O)N[C@@H](CCN)C(=O)N[C@H]5CCNC(=O)[C@H]([C@@H](C)O)NC(=O)[C@H](CCN)NC(=O)[C@H](CCN)NC(=O)[C@H](CC(C)C)NC(=O)[C@@H](CC(C)C)NC(=O)[C@H](CCN)NC5=O)[C@@H](C)O)nn4)c(OC)c3)[C@H](O)[C@H](C)O2)Oc2ccc(cc2Cl)[C@H]1O — MIC (VRE vanB): 0.01 µM
CC(C)CCCCCCCCC/C=C/C(=O)N[C@@H](CC(=O)O)C(=O)N[C@H]1CNC(=O)[C@@H]2CCCN2C(=O)[C@H](C(C)C)NC(=O)[C@@H](CN)NC(=O)CNC(=O)[C@H](CC(=O)O)NC(=O)CNC(=O)[C@H](CC(=O)O)NC(=O)[C@H](CC(=O)O)NC(=O)[C@H]2CCCCN2C1=O — MIC (broth microdilution; daptomycin-resistant isolate, Mueller-Hinton broth, Mg2+ 10 mg/L; 16 h, together with: Ca2+ 1.0 mM): 8 µg/mL
CN[C@H](CC(C)C)C(=O)N[C@H]1C(=O)N[C@@H](CC(N)=O)C(=O)N[C@H]2C(=O)N[C@H]3C(=O)N[C@H](C(=O)N[C@H](C(=O)NCc4cn(CCCCC(=O)N[C@H](C(=O)N[C@@H](CCN)C(=O)N[C@H]5CCNC(=O)[C@H]([C@@H](C)O)NC(=O)[C@H](CCN)NC(=O)[C@H](CCN)NC(=O)[C@H](CC(C)C)NC(=O)[C@@H](CC(C)C)NC(=O)[C@H](CCN)NC5=O)[C@@H](C)O)nn4)c4cc(O)cc(O)c4-c4cc3ccc4O)[C@H](O)c3ccc(c(Cl)c3)Oc3cc2cc(c3O[C@@H]2O[C@H](CO)[C@@H](O)[C@H](O)[C@H]2O[C@H]2C[C@](C)(N)[C@H](O)[C@H](C)O2)Oc2ccc(cc2Cl)[C@H]1O — MIC (VRE vanB): 3 µM
CC(=CC(C)CCCCC(=O)O)C1OC2C=CC1OC(=O)C=CC=CC=CC1OC3CC1OC(C=CCC1OC(CC(O)C1C)C(O)C(O)C=CCCC=CC2)C3C (stereo not drawn) — MIC (microbial growth; DSM20477): 0.15 µM
CC(C)C[C@H](NC(=O)[C@@H](NC(=O)[C@H](CCCNC(=N)N)NC(=O)[C@H](CCC(N)=O)NC(=O)[C@H](Cc1ccccc1)NC(=O)[C@H](Cc1ccc(O)cc1)NC(=O)[C@H](CC(N)=O)NC(=O)[C@H](Cc1c[nH]c2ccccc12)NC(=O)[C@@H](NC(=O)[C@H](CCCNC(=N)N)NC(=O)[C@H](CCCCN)NC(=O)[C@@H](N)Cc1ccccc1)C(C)C)C(C)C)C(=O)N[C@H](C(=O)N[C@@H](CCCCN)C(=O)N[C@@H](CCCCN)C(=O)N[C@@H](Cc1ccc(O)cc1)C(N)=O)C(C)C — MIC (broth dilution; KCTC 13225): 25 µM
Cc1ccc2[nH]c3c(c2c1)CCCC3NCCc1ccc(O)cc1 (stereo not drawn) — MIC (broth microdilution; BM4147 vancomycin-resistant): 16 µg/mL
CN[C@H](CC(C)C)C(=O)N[C@H]1C(=O)N[C@@H](CC(N)=O)C(=O)N[C@H]2C(=O)N[C@H]3C(=O)N[C@H](C(=O)N[C@H](C(=O)NCc4cn(CC(=O)N[C@H](C(=O)N[C@@H](CCN)C(=O)N[C@H]5CCNC(=O)[C@H]([C@@H](C)O)NC(=O)[C@H](CCN)NC(=O)[C@H](CCN)NC(=O)[C@H](CC(C)C)NC(=O)[C@@H](CC(C)C)NC(=O)[C@H](CCN)NC5=O)[C@@H](C)O)nn4)c4cc(O)cc(O)c4-c4cc3ccc4O)[C@H](O)c3ccc(c(Cl)c3)Oc3cc2cc(c3O[C@@H]2O[C@H](CO)[C@@H](O)[C@H](O)[C@H]2O[C@H]2C[C@](C)(N)[C@H](O)[C@H](C)O2)Oc2ccc(cc2Cl)[C@H]1O — MIC (broth microdilution; vancomycin-resistant vanB, tryptic soy broth; 20 to 24 h, 37 °C, 0.002% polysorbate 80): 2 µg/mL
CC[C@H](C)[C@H](NC(=O)[C@@H](CCC(=O)O)NC(=O)[C@H](CC(C)C)NC(=O)c1cccc(-c2ccccn2)n1)C(=O)N[C@H]1CCCCNC(=O)[C@H](CC(N)=O)NC(=O)[C@@H](CC(=O)O)NC(=O)[C@H](Cc2c[nH]cn2)NC(=O)[C@@H](Cc2ccccc2)NC(=O)[C@H]([C@@H](C)CC)NC(=O)[C@@H](CCCN)NC1=O — MIC (VanB vancomycin-resistant; 18 h, 37 °C, 0.3 mM ZnSO4 LB): > 64 µg/mL
Oc1c(Br)cc(Br)c2nc3cc(C(F)(F)F)ccc3nc12 — MIC (broth microdilution; vancomycin-resistant 700221, brain-heart infusion broth): 0.15 µM
CCCCCCC#Cc1cncc(-c2nnc(SCc3ccc(Cl)cc3)n2C)c1 — MIC (broth microdilution; ATCC 51559 MDR VRE; 18 to 24 h, 37 °C): > 64 µg/mL
O=C(c1ccccc1O)c1[nH]c(Cl)c(Cl)c1-n1c(C(=O)c2ccccc2O)cc(Cl)c1Cl — MIC (ATCC 6569): 8 µM
CC[C@H](C)[C@@H]1NC(=O)[C@@H]([C@@H](C)O)NC(=O)CNC(=O)[C@H](CC(=O)O)NC(=O)CNC(=O)[C@H](CC(=O)O)NC(=O)CNC(=O)[C@H]2CCCCN2C(=O)[C@@H](NC(=O)[C@H](CC(=O)O)NC(=O)/C=C/CCCCCCCCCC(C)C)CNC(=O)[C@@H]2CCCN2C1=O — MIC (broth microdilution; daptomycin-resistant isolate, Mueller-Hinton broth, Mg2+ 10 mg/L; 16 h, together with: Ca2+ 10 mM): 8 µg/mL
C#CCOc1ccc(CN[C@@]2(C)C[C@H](O[C@H]3[C@H](Oc4c5cc6cc4Oc4ccc(cc4Cl)[C@@H](O)[C@@H](NC(=O)[C@@H](CC(C)C)NC)C(=O)N[C@@H](CC(N)=O)C(=O)N[C@H]6C(=O)N[C@H]4C(=O)N[C@H](C(=O)N[C@H](C(=O)O)c6cc(O)cc(O)c6-c6cc4ccc6O)[C@H](O)c4ccc(c(Cl)c4)O5)O[C@H](CO)[C@@H](O)[C@@H]3O)O[C@@H](C)[C@H]2O)cc1OC — MIC (broth microdilution; vancomycin-resistant vanB, tryptic soy broth; 20 to 24 h, 37 °C, 0.002% polysorbate 80): 64 µg/mL
CC[C@H](C)[C@H](N)C(=O)N[C@H](C)C(=O)N[C@@H](CC(C)C)C(=O)N[C@H](CCC(=O)O)C(=O)N[C@H](C(=O)N[C@H]1CCCCNC(=O)[C@H](CC(N)=O)NC(=O)[C@@H](CC(=O)O)NC(=O)[C@H](Cc2c[nH]cn2)NC(=O)[C@@H](Cc2ccccc2)NC(=O)[C@H]([C@@H](C)CC)NC(=O)[C@@H](CCCN)NC1=O)[C@@H](C)CC — MIC (VanB vancomycin-resistant; 18 h, 37 °C, 0.3 mM ZnSO4 LB): > 64 µg/mL
CC(C)CCCCCCCCC/C=C/C(=O)N[C@@H](CC(N)=O)C(=O)N[C@H]1CNC(=O)[C@@H]2CCCN2C(=O)[C@H](C(C)C)NC(=O)[C@@H](CN)NC(=O)CNC(=O)[C@H](CC(=O)O)NC(=O)CNC(=O)[C@H](CC(=O)O)NC(=O)[C@H](CC(=O)O)NC(=O)[C@H]2CCCCN2C1=O — MIC (broth microdilution; daptomycin-resistant isolate, Mueller-Hinton broth, Mg2+ 10 mg/L; 16 h, together with: Ca2+ 1.0 mM): 8 µg/mL

Repeated from above:
CN[C@H](CC(C)C)C(=O)N[C@H]1C(=O)N[C@@H](CC(N)=O)C(=O)N[C@H]2C(=O)N[C@H]3C(=O)N[C@H](C(=O)N[C@H](C(=O)O)c4cc(O)cc(O)c4-c4cc3ccc4O)[C@H](O)c3ccc(c(Cl)c3)Oc3cc2cc(c3O[C@@H]2O[C@H](CO)[C@@H](O)[C@H](O)[C@H]2O[C@H]2C[C@](C)(NCc3ccc(OCc4cn(CC(=O)N[C@H](C(=O)N[C@@H](CCN)C(=O)N[C@H]5CCNC(=O)[C@H]([C@@H](C)O)NC(=O)[C@H](CCN)NC(=O)[C@H](CCN)NC(=O)[C@H](CC(C)C)NC(=O)[C@@H](CC(C)C)NC(=O)[C@H](CCN)NC5=O)[C@@H](C)O)nn4)c(OC)c3)[C@H](O)[C@H](C)O2)Oc2ccc(cc2Cl)[C@H]1O — MIC (broth microdilution; vancomycin-resistant vanB, tryptic soy broth; 20 to 24 h, 37 °C, 0.002% polysorbate 80): 2 µg/mL
CC[C@H](C)[C@H](N)C(=O)N[C@@H](CCCNC(=N)N)C(=O)N[C@H](C(=O)N[C@@H](Cc1c[nH]c2ccccc12)C(=O)N[C@@H](Cc1ccccc1)C(=O)N[C@H](C(=O)N[C@@H](CCCCN)C(=O)N[C@H](C(=O)N[C@@H](CCCNC(=N)N)C(=O)N[C@@H](CCCCN)C(=O)N[C@@H](CCSC)C(=O)N[C@@H](CCCCN)C(=O)N[C@@H](C)C(=O)N[C@H](C(=O)N[C@@H](Cc1ccc(O)cc1)C(=O)N[C@@H](Cc1c[nH]cn1)C(N)=O)[C@@H](C)CC)C(C)C)[C@@H](C)CC)C(C)C — MIC (broth dilution; KCTC 13225): > 100 µM
